# Measured values of several laboratories.
# Every numbered part comes from another study and shows a few of its results, in no order.

# Sample 1
# Target: Histone acetyltransferase KAT6A, both winged helices, GST fusion (KAT6A, Homo sapiens, UniProt Q92794, residues 1-181)
# Method: protein binding microarray
# Molecule type: double-stranded DNA, one strand shown
# Sample: in vitro
# Tested at: not given
# Notes: 8-mer, flanks averaged, mean of 2 arrays, mostly near background
# Reference: not given
# Direction: higher = stronger binding
# Target sequence (chain): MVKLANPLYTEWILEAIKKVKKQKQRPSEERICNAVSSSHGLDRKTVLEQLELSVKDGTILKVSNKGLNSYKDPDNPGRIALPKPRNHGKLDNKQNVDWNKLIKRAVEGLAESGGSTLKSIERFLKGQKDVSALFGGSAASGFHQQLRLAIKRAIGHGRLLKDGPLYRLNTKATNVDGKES
Strand,E-score
AATCTCGA,-0.0737
TGGCGTAA,0.0266
CCGCGAGG,0.326
GGCGTCCC,0.109
CTGGTACA,-0.101
ACCACGGT,-0.0335
CATTTAGG,-0.103
CATTGTAA,-0.0815
AGTCTGGA,-0.103
AGTAGGAA,-0.204
ACCCCGAG,-0.0131
CTATTGAG,-0.167
GACCACGC,0.0445
CCCGACAC,0.0394
AACTTCCG,0.113
CCTATCCC,-0.206
CGGAATGA,0.151
GATTAGTA,-0.0432
AACGCATC,0.058

# Sample 2
# Target: Ras GTPase-activating protein-binding protein 1, full length (G3BP1, Homo sapiens, UniProt Q13283)
# UniProt Q13283, sequence (whole entry, looked up): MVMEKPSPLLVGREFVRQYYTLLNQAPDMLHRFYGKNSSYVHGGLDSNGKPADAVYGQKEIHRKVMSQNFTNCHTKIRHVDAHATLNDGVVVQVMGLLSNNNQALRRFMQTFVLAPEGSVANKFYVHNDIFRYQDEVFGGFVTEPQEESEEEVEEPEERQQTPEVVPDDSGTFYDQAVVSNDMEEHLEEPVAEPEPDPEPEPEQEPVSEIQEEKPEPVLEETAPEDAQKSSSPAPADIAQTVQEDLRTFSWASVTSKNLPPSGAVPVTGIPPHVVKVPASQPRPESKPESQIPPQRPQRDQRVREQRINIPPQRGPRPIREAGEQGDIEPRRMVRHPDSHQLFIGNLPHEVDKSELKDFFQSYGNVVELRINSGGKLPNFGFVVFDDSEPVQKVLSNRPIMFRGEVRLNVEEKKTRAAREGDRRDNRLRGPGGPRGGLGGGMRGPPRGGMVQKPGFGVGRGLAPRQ
# Method: RNA Bind-n-Seq
# Molecule type: RNA
# Sample: in vitro
# Tested at: 200 nM
# Notes: whole 134-nt RNA, ends assumed
# Together with: 150 mM KCl
# Reference: input library
# Direction: higher = stronger binding
# All sequences stand within: GGGAGUUCUACAGUCCGACGAUC … UGGAAUUCUCGGGUGUCAAGG
Strand,log2 enrichment
CCUGUGCUACACAUCGUAUGUACCGAAUCGGGUUUUUUUGGGAAAAAAAGGGUUUUUGGGAAAGUAUUAUGUUACGCCGUUCGGAUCUGC,-1.1
AAGUCCUGUGCUACACAUCGUAUGUACCGAAUCGGAAAAGGGGAAAAGGGAAAAGGAAAGUAUUAUGUUACGCCGUUCGGAUCUGCACUU,-0.925
UCCUGUGCUACACAUCGUAUGUACCGAAUCGGGUUUUUUUGGGUUUGGGAAAAAAAGGGAAAGUAUUAUGUUACGCCGUUCGGAUCUGCA,-0.48
UCAAGUCCUGUGCUACACAUCGUAUGUACCGAAUCGGGAAAAAGGGUGGGUGGGAAAGUAUUAUGUUACGCCGUUCGGAUCUGCACUUCC,0.862
ACCAGGCAGGUGGGCAUCUUUGGGAAGUGGGGCAAGGGGGGGAUAGGGAGGGGGGUAACACUUUGGGAACAGGUGGUCCCAGGUCGUUUC,1.32
ACCAUGCAGCUGGGCAUCUUUGGGAAGUGGGGCAAGGGGGGGAUAGGGAGGGGGGUAACACUUUGGGAACAGGUGGUCCCAGGUCGUUUC,1.58
CAAGUCCUGUGCUACACAUCGUAUGUACCGAAUCGGGGUUUGGGUUUGGUUUGGGGAAAGUAUUAUGUUACGCCGUUCGGAUCUGCACUU,0.0921
CCUGUGCUACACAUCGUAUGUACCGAAUCGGGGUGGGGAAAAAAAGGGGAAAAAAAGGGGAAAGUAUUAUGUUACGCCGUUCGGAUCUGC,0.105
GCAGGAAGUAAAAACAAAUGGAAAUGCUUCGGAUAGUGGCAGGGGUGGGGGUUGCUAAGGAAAGGGUGGGAUGGGAGUGCGUAAAGAGUU,0.736
CUCAAGUCCUGUGCUACACAUCGUAUGUACCGAAUCGGGGAGGGGAGGGGAGGGAAAGUAUUAUGUUACGCCGUUCGGAUCUGCACUUCC,1.41
ACCAUGCAGGUGGGAAACUUUGGGAAGUGGGGCAAGGGGGGGAUAGGGAGGGGGGUAACACUUUGGGAACAGGUGGUCCCAGGUCGUUUC,1.16
CUCAAGUCCUGUGCUACACAUCGUAUGUACCGAAUCGGGAAGGGAAGGAAGGGAAAGUAUUAUGUUACGCCGUUCGGAUCUGCACUUCCA,0.276
UCCUGUGCUACACAUCGUAUGUACCGAAUCAAAGUGUGUGUGUGAAAUGUGUGUGUGAAAAAAGUAUUAUGUUACGCCGUUCGGAUCUGC,0.0256
AGUCCUGUGCUACACAUCGUAUGUACCGAAUCGGGUUUGGGAAAAAAAGGGUUUGGGAAAGUAUUAUGUUACGCCGUUCGGAUCUGCACU,0.0242

# Sample 3
# Target: RNA binding protein fox-1 homolog 2, RRM domain, GST-SBP tag (RBFOX2, Homo sapiens, UniProt O43251-10, residues 100-194)
# Method: RNA Bind-n-Seq
# Molecule type: RNA
# Sample: in vitro
# Tested at: 365 nM
# Notes: natural RNA segment, single round, ends assumed
# Reference: no-protein control
# Direction: higher = stronger binding
# All sequences stand within: GGGAGUUCUACAGUCCGACGAUC … UGGAAUUCUCGGGUGCCAA
# Construct (chain): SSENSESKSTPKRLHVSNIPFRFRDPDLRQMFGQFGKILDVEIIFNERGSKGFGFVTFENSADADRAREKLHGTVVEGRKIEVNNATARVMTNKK
Strand,RBNS enrichment (R)
AUAGUAGUUUACUAUUAACUAGGAAGACUGGUGUAUGAGGAGGGAGACAUUCUGUAAUAAGAUUAAAACCUAAAGUCAGCUGUGUAACAUUCCAUGAAAGAUGCAUUCAU,0.383
UAUCUAAUGCUUCAAGUUUGGUCUUGGGAAGCUGACAUUUGUGUAGAAGAUGGACUCUGAAAGACAUUCCAAGAGUGCCGCGGCAGCAUGGGAGCCUCUUAGUGAUUGUG,9.66
UUAUCUAGAGAGCUUGGUUAAUCUUUCCAUAUUAUUUGUAGUAUUGGUCACAAAUGCUGUUCCCUCUUAGCCUCAUUCUGUGCAACCAAGUGCAUAUAAGAUGCCCUGAA,0.345
CCAUAAAAUCUGGCUCGUCUUUGAUGAACAAUAAAUAUUUGUUGAACAAAUAAAUAACUGCCCUGCAUUAAGUCUGUAGCGGGCUUUCUUUUCUGUGUGACCUCAUUUCU,0.928
UUAGUUCUAUUCGUGGUGCUAGGUAGCUUGACAGGUAUGAUAUGCAUAAGUCAUAGCUCUAUUCUUAGUGUCAUAAAGUGUAGCUAAUUUAUAAGCUCUAAGUAAUCAGC,0.704
ACCCAUGAGGAAUUCGUGGAAUGGCUACUGCUGACUAACAUGAUGCACAUAACCAAAUGGGGGCCAAUGGCACAGUACCUUACUCAUCAUUUAAAAACUAUAUUUACAGA,0.555
ACAUCGAUACGAGACCUCUGAAUUUGUAUUUUUUCUUGUUAACCAUUUUAAUUUGUUGGCUGGAUGUAUAAAGAUGUUUAAAAAAUUCAGUUGCUUUUUGGGGUAAUUUG,0.574
AGAGCAGUUUGUUGACUUGUGUGCAAUGGGGAGAGGUACCAUGAUGACACUCACAGGGAGCCACUGUUCACUGACACUUGGAAGCGGUCAUUGUUAAUAUCACGGGCGUA,0.433
UCCACUGGUCUAGAACACGGCUUUGAGGGCGACAGACUGCGCCUCACUCUGCUGUCAGGUACAGGUCAAGUUCUUGGGGCCCACUUCUGAGUUUAGAAGACCUAUUACAA,0.25
AUUGCCCAGCUGCCCUUGACAGGAAGUAUGAGCAUCAUCUUCUUCCUGCCCCUGACCGUGACCCAGAACUUGACCAUGAUAGAAGAGAGCCUCACCUCUGAGUUCAUUCA,2.16
GGGCCCCUGGUGCCACUGCGUAGUGUUCACUAACACCCCGCCUCACCAGGCAGGAGCCCCGACCCCCCAGCAGCGGUGCCACUCUUCCAAGCCUCUUGGUGCACAAUAAA,0.403
AGAUGAGAUGGAUCAAGGUAAAAAUGACCCAUCAUCUACUUUCUCCAAAGAAAACCUAAUUUUCUCAGUGGGUGAACUCAUCAUUGCUGGAACUGAAACUACAACCAAUG,0.301

# Sample 4
# Read-out: peptide binding
# Molecule type: peptide
# Sample: yeast competitive growth
# Together with: B2-Cln2 chimera
# Direction: direction not given
Molecule,enrichment score
RKLHFEDEVT,0.153
ARKRLELGNLGNPQ,-0.623
GFGFLLFICKLTF,-0.0932
KVKRRLDLDIDGLQKE,0.175
LRRQLSFSED,2.57
PPKPLKKLRFDIEGSD,0.723
RRVLCFDS,-0.539
LRRKLFLDGNGSIS,-1.11
RKLDLEGIGR,-0.0717

# Sample 5
# Target: Phosphate system positive regulatory protein PHO4, full length, GST-tagged (PHO4, Saccharomyces cerevisiae, UniProt P07270, residues 1-312)
# Method: competition protein-binding microarray
# Molecule type: double-stranded DNA, one strand shown
# Sample: in vitro
# Tested at: 2 µM
# Notes: whole 60-bp probe, lowest competitor level
# Together with: Cbf1 competitor, 0.05 µM
# Direction: higher = stronger binding
# All sequences stand within: … GTCTTGATTCGCTTGACGCTGCTG
# Target sequence (chain): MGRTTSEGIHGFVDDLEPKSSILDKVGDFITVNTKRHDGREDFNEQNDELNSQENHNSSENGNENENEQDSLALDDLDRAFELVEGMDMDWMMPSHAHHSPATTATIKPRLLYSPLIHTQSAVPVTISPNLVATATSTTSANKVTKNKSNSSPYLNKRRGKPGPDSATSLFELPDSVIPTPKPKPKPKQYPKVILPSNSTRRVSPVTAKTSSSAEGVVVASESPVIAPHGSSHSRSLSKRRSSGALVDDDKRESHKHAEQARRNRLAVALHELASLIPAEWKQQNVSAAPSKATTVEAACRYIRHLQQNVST
Strand,fluorescence intensity
TAAAACCTCGTCTGAATCGTGATGGCCCTCAGAATC,3280 a.u.
TTCAAGCTAAATGAAAATGATTTAAAGACATATAAT,3460 a.u.
TATCCAAGTGCCCATCACGTTTTTTTATTTAATGTA,14000 a.u.
CTTTCCCGATCTTTACACGTGTTTTTAGCACATTTG,18600 a.u.
CTAACGAAGGTTTGCACCGTGGGTGACAAGCCAAGT,8420 a.u.
CGGGGTTAAGTTTTTCACGTGGCATGCTTGCAGCAG,12200 a.u.
TGAGTTGATAGATCGCACGCTCTCGCCGATATAAGC,8380 a.u.
CATACCCAACCTTGTCACACTACTTAAGATATTTGT,4860 a.u.
ATCCCTTGCCCAAAGGGCGTGCAAACCGAGTCTAGC,8190 a.u.
CGTCCTAGTGATTGGCACGTGGGTGCCATGAGGAAG,19200 a.u.
TAAAGGTGAGTATGGCATGTGGTGGTGGGATTAGAG,12400 a.u.
TGTACAGAAAGAAAATCCGTGATGGTTTAATGGTCA,3750 a.u.
CTTCCCAGGCCCACCAACGTGCGATCCCCGCTATGT,11300 a.u.
TCCAGGGGGATACTACACGTGTAAGGGTTGAGTATC,16200 a.u.
CGAGAATCAGGCACCCGCGTGTGAACGGCGTCATTC,6930 a.u.
AAAGCGGTAATTTGTCATGTGGGTGCAGATATCTAT,9810 a.u.
AGTTGCTTTCATTTCGGCGTGATGGTACGGCACCCA,4670 a.u.
CTAACGAAGGTTTGAGCAGTGGGTGACAAGCCAAGT,3400 a.u.
CGTCCTAGTGATTTTCACGTGCACTCCATGAGGAAG,15800 a.u.
GTTCCCATTGATTAGCACGTGAAAATCTTAGCGAGT,16600 a.u.
GCCTCCTTAGATTGCCCCGTGCCAGCAATGGTCATT,9470 a.u.
CGTCCTAGTGATTGCATAGTGGGTGCCATGAGGAAG,6730 a.u.

# Some of these lines once more (sample 4):
Molecule,enrichment score
ARKRLELGNLGNPQ,-0.623
PPKPLKKLRFDIEGSD,0.723
LRRQLSFSED,2.57
GFGFLLFICKLTF,-0.0932
RKLHFEDEVT,0.153
RKLDLEGIGR,-0.0717
LRRKLFLDGNGSIS,-1.11
RRVLCFDS,-0.539
KVKRRLDLDIDGLQKE,0.175
